Experimental data gathered from unrelated publications.
Compare with care: the assays were run in different laboratories. “And” joins repeats or separate records; there may be more than shown. ± gives the spread as reported.
gyrB with GyrA: DNA gyrase subunit B, with GyrA (gyrB, Mycobacterium tuberculosis, UniProt P9WG45)
UniProt P9WG45, sequence (whole entry, looked up): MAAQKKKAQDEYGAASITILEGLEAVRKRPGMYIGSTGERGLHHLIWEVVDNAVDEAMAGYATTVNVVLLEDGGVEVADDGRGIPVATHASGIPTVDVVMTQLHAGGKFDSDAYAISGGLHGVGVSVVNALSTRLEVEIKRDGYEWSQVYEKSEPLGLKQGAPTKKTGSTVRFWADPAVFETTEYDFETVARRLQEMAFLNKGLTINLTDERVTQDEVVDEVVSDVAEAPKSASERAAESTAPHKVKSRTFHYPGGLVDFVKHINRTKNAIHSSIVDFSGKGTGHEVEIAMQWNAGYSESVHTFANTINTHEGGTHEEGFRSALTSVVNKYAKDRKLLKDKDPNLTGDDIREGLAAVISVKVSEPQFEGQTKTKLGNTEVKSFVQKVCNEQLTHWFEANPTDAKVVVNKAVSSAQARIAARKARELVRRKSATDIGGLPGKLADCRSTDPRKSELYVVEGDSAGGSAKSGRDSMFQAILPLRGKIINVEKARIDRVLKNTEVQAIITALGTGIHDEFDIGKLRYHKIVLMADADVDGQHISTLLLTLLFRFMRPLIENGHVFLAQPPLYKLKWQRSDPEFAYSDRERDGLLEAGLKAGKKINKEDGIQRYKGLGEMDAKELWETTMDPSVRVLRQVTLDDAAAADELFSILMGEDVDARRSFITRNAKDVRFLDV
ARID1B: AT-rich interactive domain-containing protein 1B (ARID1B, Homo sapiens, UniProt Q8NFD5)
UniProt Q8NFD5, sequence (whole entry, looked up): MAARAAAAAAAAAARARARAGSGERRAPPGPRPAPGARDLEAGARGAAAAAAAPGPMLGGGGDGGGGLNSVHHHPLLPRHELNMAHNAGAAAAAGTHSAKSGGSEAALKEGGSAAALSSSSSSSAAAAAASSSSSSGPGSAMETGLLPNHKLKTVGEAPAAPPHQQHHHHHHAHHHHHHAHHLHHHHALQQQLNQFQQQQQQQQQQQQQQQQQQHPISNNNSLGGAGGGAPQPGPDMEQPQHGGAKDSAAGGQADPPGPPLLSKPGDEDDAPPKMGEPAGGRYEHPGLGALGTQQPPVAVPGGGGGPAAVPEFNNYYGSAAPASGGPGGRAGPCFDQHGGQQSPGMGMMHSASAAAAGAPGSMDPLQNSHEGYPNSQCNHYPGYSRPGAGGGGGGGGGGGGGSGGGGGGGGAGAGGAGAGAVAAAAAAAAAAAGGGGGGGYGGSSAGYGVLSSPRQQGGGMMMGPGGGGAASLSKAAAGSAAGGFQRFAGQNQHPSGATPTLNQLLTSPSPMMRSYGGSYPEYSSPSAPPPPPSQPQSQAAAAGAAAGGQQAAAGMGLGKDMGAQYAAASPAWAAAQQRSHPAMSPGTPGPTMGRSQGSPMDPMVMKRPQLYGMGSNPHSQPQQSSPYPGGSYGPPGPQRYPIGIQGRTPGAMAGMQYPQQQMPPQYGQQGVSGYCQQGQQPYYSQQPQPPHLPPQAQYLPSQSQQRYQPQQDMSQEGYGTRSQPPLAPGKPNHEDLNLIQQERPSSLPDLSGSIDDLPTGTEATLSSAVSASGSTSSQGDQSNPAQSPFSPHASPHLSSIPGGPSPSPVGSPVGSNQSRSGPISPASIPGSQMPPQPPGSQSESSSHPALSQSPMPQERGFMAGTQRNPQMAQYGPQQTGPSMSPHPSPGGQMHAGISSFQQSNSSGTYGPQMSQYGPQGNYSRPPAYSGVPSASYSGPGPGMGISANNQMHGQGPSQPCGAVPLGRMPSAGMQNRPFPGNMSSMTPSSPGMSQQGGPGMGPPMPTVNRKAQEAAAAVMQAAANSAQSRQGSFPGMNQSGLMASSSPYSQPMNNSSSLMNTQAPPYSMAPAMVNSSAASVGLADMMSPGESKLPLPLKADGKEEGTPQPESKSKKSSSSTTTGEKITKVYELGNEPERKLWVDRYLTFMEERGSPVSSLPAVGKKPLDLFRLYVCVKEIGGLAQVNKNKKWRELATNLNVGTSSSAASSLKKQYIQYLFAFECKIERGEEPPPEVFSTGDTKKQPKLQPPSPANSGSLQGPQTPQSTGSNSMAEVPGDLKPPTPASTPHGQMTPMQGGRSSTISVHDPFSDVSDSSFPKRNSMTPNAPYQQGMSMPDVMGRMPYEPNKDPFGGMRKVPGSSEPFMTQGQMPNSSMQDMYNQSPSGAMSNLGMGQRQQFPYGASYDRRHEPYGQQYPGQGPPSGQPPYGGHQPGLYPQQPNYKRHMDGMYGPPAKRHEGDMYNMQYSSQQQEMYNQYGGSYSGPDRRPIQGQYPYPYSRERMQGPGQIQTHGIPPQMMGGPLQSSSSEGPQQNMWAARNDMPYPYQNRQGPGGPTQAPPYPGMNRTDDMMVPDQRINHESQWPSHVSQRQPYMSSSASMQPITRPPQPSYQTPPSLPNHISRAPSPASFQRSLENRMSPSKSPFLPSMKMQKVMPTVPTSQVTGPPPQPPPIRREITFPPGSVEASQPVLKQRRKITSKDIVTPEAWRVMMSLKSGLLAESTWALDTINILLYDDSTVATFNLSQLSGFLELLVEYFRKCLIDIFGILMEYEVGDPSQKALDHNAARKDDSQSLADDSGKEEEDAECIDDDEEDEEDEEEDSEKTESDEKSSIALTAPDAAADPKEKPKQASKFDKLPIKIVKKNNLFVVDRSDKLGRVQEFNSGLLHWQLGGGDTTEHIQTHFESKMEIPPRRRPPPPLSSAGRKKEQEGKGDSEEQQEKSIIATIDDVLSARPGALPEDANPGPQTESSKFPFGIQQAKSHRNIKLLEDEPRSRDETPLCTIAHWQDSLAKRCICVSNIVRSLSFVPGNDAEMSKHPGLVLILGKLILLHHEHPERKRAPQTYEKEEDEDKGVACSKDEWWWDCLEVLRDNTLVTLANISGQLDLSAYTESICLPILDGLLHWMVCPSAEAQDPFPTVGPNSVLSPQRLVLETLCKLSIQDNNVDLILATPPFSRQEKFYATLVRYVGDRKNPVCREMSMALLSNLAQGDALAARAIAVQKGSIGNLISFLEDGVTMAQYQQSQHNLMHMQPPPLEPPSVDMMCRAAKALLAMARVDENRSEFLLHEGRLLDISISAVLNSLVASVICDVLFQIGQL
CNR1: Cannabinoid receptor 1 (CNR1, Homo sapiens, UniProt P21554)
UniProt P21554, sequence (whole entry, unmodified, looked up): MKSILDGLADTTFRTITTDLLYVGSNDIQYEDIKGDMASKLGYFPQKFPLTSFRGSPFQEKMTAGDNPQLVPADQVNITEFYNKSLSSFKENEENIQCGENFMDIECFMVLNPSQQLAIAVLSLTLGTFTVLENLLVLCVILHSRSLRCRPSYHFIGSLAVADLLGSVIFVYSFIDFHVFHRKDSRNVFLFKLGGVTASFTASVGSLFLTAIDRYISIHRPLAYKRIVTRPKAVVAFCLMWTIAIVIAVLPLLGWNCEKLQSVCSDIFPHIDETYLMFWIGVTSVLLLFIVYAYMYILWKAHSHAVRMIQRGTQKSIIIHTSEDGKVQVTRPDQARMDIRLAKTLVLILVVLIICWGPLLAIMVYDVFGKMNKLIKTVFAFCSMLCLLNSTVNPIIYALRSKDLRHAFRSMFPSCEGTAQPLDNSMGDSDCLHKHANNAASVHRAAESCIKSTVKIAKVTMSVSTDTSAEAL
UniProt P42574, sequence (whole entry, looked up): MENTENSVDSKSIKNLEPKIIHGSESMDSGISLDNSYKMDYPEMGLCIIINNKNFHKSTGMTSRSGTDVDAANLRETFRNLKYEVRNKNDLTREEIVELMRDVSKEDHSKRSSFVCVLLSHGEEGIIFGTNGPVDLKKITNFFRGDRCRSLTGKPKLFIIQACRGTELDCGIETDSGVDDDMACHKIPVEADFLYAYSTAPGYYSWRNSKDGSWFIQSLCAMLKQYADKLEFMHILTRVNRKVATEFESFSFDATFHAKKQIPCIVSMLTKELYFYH
UniProt Q01959, sequence (whole entry, unmodified, looked up): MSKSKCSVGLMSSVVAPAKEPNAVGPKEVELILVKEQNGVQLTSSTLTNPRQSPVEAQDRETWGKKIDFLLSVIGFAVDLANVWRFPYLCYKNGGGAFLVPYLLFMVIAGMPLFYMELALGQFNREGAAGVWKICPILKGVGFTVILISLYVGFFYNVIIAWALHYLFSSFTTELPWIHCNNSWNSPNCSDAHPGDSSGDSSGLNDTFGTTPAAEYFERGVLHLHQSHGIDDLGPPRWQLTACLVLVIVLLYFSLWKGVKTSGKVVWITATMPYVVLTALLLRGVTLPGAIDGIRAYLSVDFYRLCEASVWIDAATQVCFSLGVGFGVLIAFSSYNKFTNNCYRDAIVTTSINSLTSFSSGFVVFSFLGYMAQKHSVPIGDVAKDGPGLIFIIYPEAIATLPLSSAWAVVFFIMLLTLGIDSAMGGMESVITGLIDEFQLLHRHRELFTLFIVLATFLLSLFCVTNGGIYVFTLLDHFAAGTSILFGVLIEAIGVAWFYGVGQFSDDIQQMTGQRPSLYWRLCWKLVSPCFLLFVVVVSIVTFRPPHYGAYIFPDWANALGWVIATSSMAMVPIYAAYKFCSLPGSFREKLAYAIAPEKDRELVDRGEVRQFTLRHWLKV
UniProt P28222, sequence (whole entry, looked up): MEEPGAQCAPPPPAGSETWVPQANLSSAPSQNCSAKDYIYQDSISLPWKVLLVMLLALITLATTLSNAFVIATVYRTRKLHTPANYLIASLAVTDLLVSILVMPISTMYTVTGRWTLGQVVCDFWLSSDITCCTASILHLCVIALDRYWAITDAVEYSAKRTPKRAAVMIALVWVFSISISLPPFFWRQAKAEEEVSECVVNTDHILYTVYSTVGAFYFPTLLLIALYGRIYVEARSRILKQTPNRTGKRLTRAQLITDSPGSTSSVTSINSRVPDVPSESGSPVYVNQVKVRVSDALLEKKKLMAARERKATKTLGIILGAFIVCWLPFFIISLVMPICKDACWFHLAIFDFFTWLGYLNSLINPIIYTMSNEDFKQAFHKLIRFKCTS

Cc1ccc(OCCN(C)C)cc1C(=O)N[C@H](C)c1cc(-c2ccc(CNC3CCCC3)s2)nc2ccccc12  viability (Vero E6; 15.62 µM): 1.83% and -1.14%
Cc1ccc(NC(=O)CCc2c(C(=O)Nc3ccc(C)cc3)[nH]c3ccc(Cl)cc23)cc1  IC50 (gyrB with GyrA): 122000 nM
CC(C)[C@@H]1NC(=O)[C@H](Cc2ccc(O)cc2)NC(=O)[C@H](Cc2ccc(O)cc2)NC(=O)[C@H](C(C)C)NC(=O)[C@H](Cc2ccccc2)N(C)C(=O)[C@H](CCCNC(=N)N)NC(=O)[C@H](C)NC(=O)CN(C)C(=O)[C@H](Cc2c[nH]c3ccccc23)NC(=O)[C@H](CCC(=O)O)NC(=O)[C@H](Cc2ccccc2)N(C)C(=O)[C@H](Cc2ccccc2)NC(=O)CSC[C@@H](C(N)=O)NC(=O)[C@H](CCCCN)NC1=O  IC50 (ARID1B; binding, TR-FRET competition; 1% DMSO): 10 nM
O=C(O)CCn1c(=O)oc2cc(Cl)c(Cl)cc21  EC50 (CHRM1 (Homo sapiens, UniProt P11229); agonist): > 50100 nM
CC(C)(C)C(=O)OCOP(=O)(OCOC(=O)C(C)(C)C)C1CCCN(O)C1=O (centres unmarked)  CC50 (M14): 63200 nM
C=C(C)C1C2OC(=O)C1C1(O)CC3OC34C(=O)OC2C14C (centres unmarked)  Kd (Rdl (Drosophila melanogaster, UniProt P25123); ion current, inhibitor, two-electrode voltage clamp; from koff/kon, with: GABA at EC50): 438 nM
CCN(CC)C(=O)[C@@H]1C=C2c3cccc4c3c(cn4C(=O)c3ccco3)C[C@H]2N(C)C1  Ki (HTR1B (Homo sapiens, UniProt P28222); ligand displacement, radioligand): 1460 nM
CC(=O)N(Cc1ccc(Br)cc1)[C@@H](C)C(=O)N(C)[C@@H](C)C(=O)N(Cc1c[nH]c2ccccc12)[C@@H](C)C(=O)N(C)[C@@H](C)C(=O)N(CCC(C)C)[C@@H](C)C(N)=O  Ki (MDM2 (Homo sapiens, UniProt Q00987); ligand displacement, FP): 24900 nM
CCC[C@@H](C(=O)c1ccccc1)N1CCCC1  Ki (SLC6A3 (Homo sapiens, UniProt Q01959, S149A/S429G); transporter uptake, inhibitor, radiometric): 26 nM
O=C(c1ccc(Cl)cc1Cl)N1CCO[C@@H](c2ccccc2)C1  Kd (Hemagglutinin (HA, Influenza A virus, UniProt P03452); A/Puerto Rico/8/1934): 6100 nM
CC(C)CC(C(=O)N1CC2(CC1C#N)C(=O)Nc1ccccc12)N(C)C(=O)c1cc2c(F)cc(F)c(F)c2[nH]1 (centres unmarked)  IC50 (Caspase-3 (CASP3, Homo sapiens, UniProt P42574); enzyme activity, inhibitor): 4200 nM and 4160 nM
CCCCCn1cc(C(=O)c2cccc3c2CC(C)(C)C3)c2ccccc21  EC50 (CNR1; cAMP, agonist): 4.9 nM
COc1ccc(NC(=O)CCc2c(C(=O)Nc3ccc(OC)cc3)[nH]c3ccc(Cl)cc23)cc1  IC50 (gyrB with GyrA): 28500 nM
CCN(CC)C(=O)c1ccc(C(c2cccc(O)c2)N2CC(C)N(Cc3ccccc3)CC2C)cc1 (centres unmarked)  EC50 (OPRD1 (Homo sapiens, UniProt P41143, H278A); agonist): 0.76 ± 0.43 nM
O=[N+]([O-])CC(c1ccco1)c1c(-c2ccccc2)[nH]c2ccccc12 (centres unmarked)  EC50 (CNR1; Gαi1-γ2 dissociation, agonist, BRET): 430 ± 60 nM
CCn1ccc(-c2cc([C@@H](C)NC(=O)c3cc(N4CC5CCC(C4)N5C)ccc3C)c3ccccc3n2)n1  viability (Vero E6; 3.906 µM): 100% and 91% and 96.6%
O=C1NC2(CC2)COc2ncc(F)cc2[C@H]2COCCN2c2ccn3ncc1c3n2  organ-to-brain weight ratio (Sprague-Dawley rat, male, kidneys; oral, 10 mg/kg/day, 4 weeks, end of treatment): 166 ± 47.3%
CN(C)[C@H]1C[C@@]23CC[C@@]4(O2)C(=CC[C@]2(C)[C@@H](c5ccc6ccncc6c5)CC[C@H]24)C=C3[C@@H](O)[C@@H]1O  inhibition (Tyrosine-protein kinase JAK1, JH1 kinase domain (JAK1, Homo sapiens, UniProt P23458); probe labelling, inhibitor, KiNativ ATP probe MS; native lysate; 0.1 µM): 6.8%
CCCCCn1cc(C(=O)c2ccc3ccccc3c2)c2ccccc21  EC50 (CNR2 (Homo sapiens, UniProt P34972, L182I); cAMP, agonist, BRET): 50.1 nM
Cc1ccc2c(C(C[N+](=O)[O-])c3cccs3)c(-c3ccccc3)[nH]c2c1 (centres unmarked)  EC50 (CNR1 (Homo sapiens, UniProt P21554, V249A); β-arrestin recruitment, agonist, luciferase): 180 nM
CC(C)c1nc2cc(O)ccc2c(=O)n1-c1ccc(C#N)cc1  IC50 (TRPV1 (Homo sapiens, UniProt Q8NER1, T556A); ion current, antagonist, whole-cell patch clamp; mutant T556A, +80 mV, with: pH 5 stimulus): 860 nM
COc1ccccc1C(C[N+](=O)[O-])c1c(-c2ccccc2)[nH]c2ccccc12 (centres unmarked)  EC50 (CNR1 (Homo sapiens, UniProt P21554, I169A); G protein activation, agonist, BRET): 930 nM
CC[C@H](C)[C@H](NC(=O)[C@H](CO)NC(=O)[C@H](CC(N)=O)NC(=O)[C@H](CC(C)C)NC(=O)[C@H](Cc1ccc(O)cc1)NC(=O)[C@H](CCCCN)NC(=O)[C@H](CCCCN)NC(=O)[C@@H](NC(=O)[C@H](C)NC(=O)[C@H](CCSC)NC(=O)[C@H](CCC(N)=O)NC(=O)[C@H](CCCCN)NC(=O)[C@H](CCCN=C(N)N)NC(=O)[C@H](CC(C)C)NC(=O)[C@H](CCCN=C(N)N)NC(=O)[C@@H](NC(=O)[C@H](Cc1ccc(O)cc1)NC(=O)[C@H](CC(N)=O)NC(=O)[C@H](CC(=O)O)NC(=O)[C@@H](NC(=O)[C@H](Cc1ccccc1)NC(=O)[C@@H](NC(=O)[C@H](C)NC(=O)[C@H](CC(=O)O)NC(=O)[C@H](CO)NC(=O)[C@@H](N)Cc1c[nH]cn1)C(C)C)[C@@H](C)O)[C@@H](C)O)C(C)C)C(=O)N[C@@H](CC(C)C)C(=O)N[C@@H](CC(N)=O)C(N)=O  EC50 (ADCYAP1R1 (Homo sapiens, UniProt P41586, del89-109); Gq dissociation, agonist, BRET2 TRUPATH; COS-7; 37 °C): 490 nM
CCCCCn1cc(C(=O)c2ccc3c(c2)CC(C)(C)C3)c2ccccc21  EC50 (CNR1 (Homo sapiens, UniProt P21554, F174A); G protein activation, agonist, BRET): 2450 nM
CC(C)C[C@@H]1NC(=O)CN(C)C(=O)[C@H](Cc2c[nH]c3ccccc23)NC(=O)[C@H](CCC(=O)O)NC(=O)[C@H](Cc2ccccc2)N(C)C(=O)[C@H](Cc2ccccc2)NC(=O)CSC[C@@H](C(N)=O)NC(=O)[C@H](CCCCN)NC(=O)[C@H](C(C)C)NC(=O)[C@H](C)NC(=O)[C@H](Cc2ccc(O)cc2)NC(=O)[C@H](C(C)C)NC(=O)[C@H](Cc2ccccc2)N(C)C(=O)[C@H](CCCNC(=N)N)NC1=O  IC50 (ARID1B; binding, TR-FRET competition; 1% DMSO): > 1000 nM
COc1ccccc1-c1n[nH]c2nc(NC3CCN(C(=O)Cc4ccc(F)cc4F)CC3)ncc12  relative abundance (bead binding, competition bead pull-down, item: LINJ.33.2520; Leishmania donovani axenic amastigote extract; 10 µM; relative to: vehicle): 1.01

Some of these lines once more:
COc1ccc(NC(=O)CCc2c(C(=O)Nc3ccc(OC)cc3)[nH]c3ccc(Cl)cc23)cc1  IC50 (gyrB with GyrA): 28500 nM
CCN(CC)C(=O)c1ccc(C(c2cccc(O)c2)N2CC(C)N(Cc3ccccc3)CC2C)cc1 (centres unmarked)  EC50 (OPRD1 (Homo sapiens, UniProt P41143, H278A); agonist): 0.76 ± 0.43 nM
